Assay results from different studies.
Each line is one published result; not all experiments were run side by side. ± gives the spread as reported.
Cell line: SMMC-7721

SMILES | test | setting | measurement | result
COc1c(O)cc2oc3cc(O)c4c(c3c(=O)c2c1CCC(C)(C)O)OC(C)(C)CC4 | cell growth or viability | 48 h | IC50 | > 40 µM
OCC1OC(OCC2OC(OC3OC=CC4C(O)C5OC5(CO)C34)C(O)C(O)C2O)C(O)C(O)C1O (centres unmarked) | MTT | concentration not given | cell growth | no effect
COc1ccc2cc3[n+](cc2c1OCc1cn(Cc2ccc(S(C)(=O)=O)cc2)nn1)CCc1cc2c(cc1-3)OCO2 | cell growth or viability, MTT |  | IC50 | 69.7 µM
Cc1ccc2oc(=O)c(-c3nc4cnccc4[nH]3)cc2c1 | cell proliferation | 72 h | EC50 | 9.37 µM
COc1ccc2cc3[n+](cc2c1OCc1cn(Cc2ccc(Cl)cc2Cl)nn1)CCc1cc2c(cc1-3)OCO2 | cell growth or viability, MTT |  | IC50 | 27.9 µM
COc1c(O)cc2oc3cc4c(c(O)c3c(=O)c2c1CC(O)C(C)(C)O)CC(O)O4 (centres unmarked) | cell growth or viability | 48 h | IC50 | > 40 µM
COc1ccc2cc3[n+](cc2c1OCc1cn(Cc2ccccc2C#N)nn1)CCc1cc2c(cc1-3)OCO2 | cell growth or viability, MTT |  | IC50 | 64 µM
O=C(/C=C/c1ccc(O[C@@H]2O[C@H](CO)[C@@H](O)[C@H](O)[C@H]2O)cc1)c1ccc(O)cc1O | MTT | concentration not given | cell growth | no effect
Nc1ccn([C@@H]2O[C@H](CO)[C@@H](O)[C@@H]2O)c(=O)n1 | cell growth or viability, MTT | 24 h | IC50 | 630 µM
CC(C)CCc1c(O)cc2oc3cc(O)c(O)c(CCC(C)C)c3c(=O)c2c1O | cell growth or viability | 48 h | IC50 | 6.51 µM
O=C(/C=C/c1ccc2c(c1)C(=O)N(CCCc1ccccc1)CC2)NO | cell growth, SRB | 72 h | IC50 | 2.76 ± 1.32 µM

A few entries again:
SMILES | test | setting | measurement | result
Nc1ccn([C@@H]2O[C@H](CO)[C@@H](O)[C@@H]2O)c(=O)n1 | cell growth or viability, MTT | 24 h | IC50 | 630 µM
